Results pooled from the literature.
Each line is one published result; not all experiments were run side by side. Values joined by “and” are separate records of one study, mostly repeats; a detail may differ. ± marks the error that the study gave.
UCHL1: Ubiquitin carboxyl-terminal hydrolase isozyme L1 (UCHL1, Homo sapiens, UniProt P09936)
Voltage-dependent P/Q-type calcium channel subunit alpha-1A: Voltage-dependent P/Q-type calcium channel subunit alpha-1A (Homo sapiens, UniProt O00555)
Rab GDP dissociation inhibitor beta with Rab1A: Rab GDP dissociation inhibitor beta, with Rab1A (Homo sapiens, UniProt P50395)

Structure (SMILES)	tested on	assay	test system	conditions	how to read	quantity	value
CC[C@@H]1[C@H](F)C(=O)N[C@@H]1COc1nccc2cc(C(N)=O)c(OC)cc12	Serine/threonine-protein kinase PLK1 (PLK1, Homo sapiens, UniProt P53350)	ATP-site probe binding, ActivX profiling	THP-1 cell lysate	0.04 mM, Lys2 site	–	inhibition	3.7%
N#Cc1c(NC(=O)CCl)sc2c1CCN(Cc1ccccc1)C2	UCHL1	covalent, intact protein LC-MS	–	12.5 µM	–	labelling	22.4%
O=C(NO)c1ccc(CN2CCCCc3ccccc32)c(F)c1	Muscarinic acetylcholine receptor M5 (CHRM5, Homo sapiens, UniProt P08912)	radioligand binding, radioligand displacement	–	10 µM	–	inhibition	-9.17%
Nc1nc2ccc(OC(F)(F)F)cc2s1	Voltage-dependent P/Q-type calcium channel subunit alpha-1A	ion current, antagonist	HEK293	30 µM	–	inhibition	71%
Cc1cc(C)cc(COc2cc3c(cc2OCc2cc(C)cc(C)c2)[C@H]2C[C@](O)(Cc4cn(CC5CCCCC5)nn4)C[C@H](C)N2CC3)c1	Rab GDP dissociation inhibitor beta with Rab1A	GDI2-Rab1A interaction, NanoLuc complementation	–	6.25 µM	–	inhibition	87.2%
C[C@H](NCc1ccc(OCc2ccccc2F)cc1)C(N)=O	Voltage-dependent P/Q-type calcium channel subunit alpha-1A	ion current, antagonist	HEK293	3 µM	–	inhibition	13%
Cc1cc(-c2ccnc3[nH]cc(F)c23)cc(F)c1[C@@]1(O)[C@H](C)CN(C(=O)CN)C[C@@H]1C	Serine/threonine-protein kinase LATS1 (LATS1, Homo sapiens, UniProt O95835)	ATP probe binding, KiNativ, item: Lys2 site	HEK293T cell lysate	0.1 µM	–	inhibition	37.5%
CCc1oc2ccccc2c1C(=O)c1cc(Br)c(O)c(Br)c1	Solute carrier family 22 member 12 (SLC22A12, Homo sapiens, UniProt Q96S37, F360A)	urate uptake	HEK293T	0.5 µM, 10 min, 37 °C, with: 200 µM [14C]urate	–	inhibition	49.2% and 100% and 48.1%
[2H]c1cc(C)c(NC(=O)c2cnc(Nc3cc(N4CCCCC4)nc(C)n3)s2)c(Cl)c1	Ephrin type-A receptor 1 (EPHA1, Homo sapiens, UniProt P21709)	–	–	0.01 µM	–	inhibition	> 90%
Cc1cc(C)cc(COc2cc3c(cc2OCc2cc(C)cc(C)c2)[C@H]2C[C@](O)(Cc4cn(CCc5ccc(N)cc5)nn4)C[C@H](C)N2CC3)c1	Rab GDP dissociation inhibitor beta with Rab1A	GDI2-Rab1A interaction, NanoLuc complementation	–	6.25 µM	–	inhibition	98.3%
N[C@@H](Cc1ccc(O)c(O)c1)C(=O)O	Voltage-dependent P/Q-type calcium channel subunit alpha-1A	ion current, antagonist	HEK293	10 µM	–	inhibition	7%
Cl.O=C(CCl)NCC1CN(Cc2ccccc2)CC12CCC2 (centres unmarked)	UCHL1	covalent, intact protein LC-MS	–	12.5 µM	–	labelling	16.6%
Cc1ccc(C)c(NC(=O)CSc2nnc(Cc3cc(=O)[nH]c(=O)[nH]3)n2-c2ccc(Cl)cc2)c1	Poly [ADP-ribose] polymerase tankyrase-1 (TNKS, Homo sapiens, UniProt O95271)	enzyme activity, inhibitor	–	concentration not given	–	inhibition	no inhibition
OO	Histone acetyltransferase RTT109, with Vps75 (Saccharomyces cerevisiae, UniProt Q07794)	enzyme activity	–	1 mM, with: Rtt109-Vps75 complex, without DTT	–	inhibition	20 ± 5%
O=C(C1=C[C@H](C2CCCCC2)C[C@H](OCCCCO)O1)N1CCN(Cc2ccc3c(c2)OCO3)CC1	Trypanosoma cruzi	reporter translation, Renilla luciferase mRNA translation	cell-free extract	40 µM	baseline: DMSO	inhibition	20.6%
CC(=O)Nc1ccc(O)cc1	Voltage-dependent P/Q-type calcium channel subunit alpha-1A	antagonist	HEK293	3 µM	–	inhibition	19%
C[C@@H](NC(=O)[C@H](CCCCNC(=O)C(F)(F)F)NS(C)(=O)=O)C(=O)N[C@@H](CCCNC(=N)N)C(N)=O	NAD-dependent protein deacetylase sirtuin-2 (SIRT2, Homo sapiens, UniProt Q8IXJ6)	enzyme activity, inhibitor	–	100 µM	–	inhibition	< 5%
COc1ccc(F)cc1C(=O)NCc1ccc(-c2nn([C@@H](C)C(F)(F)F)c(N)c2C(N)=O)cc1	Tyrosine-protein kinase Tec (TEC, Homo sapiens, UniProt P42680)	target engagement, competitive chemoproteomics	human PBMCs	10 µM	–	inhibition	> 90%
O=C(O)Cc1ccccc1Nc1c(Cl)cccc1Cl	Voltage-dependent P/Q-type calcium channel subunit alpha-1A	ion current, antagonist	HEK293	3 µM	–	inhibition	-4%
O=C(Nc1cccc2c(=O)cc(-c3nnn[nH]3)oc12)c1ccc(OCCCCc2ccccc2)cc1	Volume-regulated anion channel subunit LRRC8C, part LRRC8A IL1 chimera (LRRC8C, Homo sapiens, UniProt Q8TDW0, Y126F)	ion current, inhibitor, whole-cell patch clamp	HCT LRRC8-/- cells	0.1 µM, -100 mV	–	inhibition	32.3% and 8.08% and 23.9% and 9.23% and 11%

Excerpt of the above:
Structure (SMILES)	tested on	assay	test system	conditions	how to read	quantity	value
Cc1cc(C)cc(COc2cc3c(cc2OCc2cc(C)cc(C)c2)[C@H]2C[C@](O)(Cc4cn(CC5CCCCC5)nn4)C[C@H](C)N2CC3)c1	Rab GDP dissociation inhibitor beta with Rab1A	GDI2-Rab1A interaction, NanoLuc complementation	–	6.25 µM	–	inhibition	87.2%
